Measured values collected from several papers.
± marks the error that the study gave.

SMILES	target or system	assay	system	conditions	how to read	measurement	result
COc1ccc(NC(=S)N/N=C/c2cccc3cc4ccccc4nc23)cc1	HeLa	annexin V/PI	–	concentration not given, 48 h, dosed at IC12.5	–	early apoptotic cells	5.57%
Cc1[nH]c(C)c([N+](=O)[O-])c(=O)c1-c1ccc(Oc2ccccc2)cc1	Plasmodium yoelii	–	17XL	384-well	–	IC50	237 ± 63 nM
C[C@H]1[C@@H](O)O[C@@H]2O[C@@]3(C)CC[C@H]4[C@H](C)CC[C@@H]1[C@@]24OO3	THP-1	annexin V/PI flow cytometry, measured: annexin V+/PI-	–	0.8 µM, 24 h	–	early apoptotic cells	1.9%
COc1cc2ncnc(Nc3ccc(Oc4ccccc4)c(C)c3C)c2cc1OC.Cl	NCI-H2087 (BRAF L597V)	cell viability	–	concentration not given, 72 h, added: trametinib	direction not given	Bliss synergy score	21%
C[C@]12O[C@H](C[C@]1(O)CO)n1c3ccccc3c3c4c(c5c6ccccc6n2c5c31)CNC4=O	HBL-1	–	–	0.1 µM, 120 h	–	viability	30%
Nc1cccc2c1C(=O)N(C1CCC(=O)NC1=O)C2=O (stereo not shown)	RPMI-8226	flow cytometry, measured: CD209	–	concentration not given	baseline: comparator compound alone	surface marker level	59.4%
Ic1cccc(CSc2nnc(-c3ccncc3)o2)c1	HeLa expressing Ub(G76V)-GFP	Ub(G76V)-GFP degradation, cycloheximide chase	–	12 µM	–	inhibition	19%
Cc1ccc(NC(=O)CCCCCC(=O)Nc2ccccc2N)cc1	HBL-1	–	–	0.1 µM, 120 h	–	viability	138%
Cn1cc(-c2ccc(-c3cncc(Cl)c3N3CCC4(CCNC4=O)CC3)cc2)cn1	COLO 205	gene expression, microarray, measured: PRKCDBP mRNA	–	concentration not given, 2 h	baseline: untreated cells	log2 fold change	-3.1
Cn1nc2c3c(cccc31)C(=O)c1ccccc1-2	HeLa expressing Ub(G76V)-GFP	Ub(G76V)-GFP degradation, cycloheximide chase	–	12 µM	–	inhibition	89%
Cc1[nH]c(C)c(-c2ccc(OCCCc3ccccn3)cc2)c(=O)c1Br	Plasmodium yoelii	–	17XL	384-well	–	IC50	321 ± 108 nM
COc1cccc2c1C(=O)c1c(O)c3c(c(O)c1C2=O)C[C@@](O)(C(=O)CO)C[C@@H]3O[C@H]1C[C@H](N)[C@@H](O)[C@H](C)O1	BT-12	cell viability, MTT	–	10 µM, 72 h	–	inhibition	93.8%
N#C/C(=C/c1ccc(O)c(O)c1)C(=O)NCc1ccccc1	HeLa expressing Ub(G76V)-GFP	Ub(G76V)-GFP degradation, cycloheximide chase	–	12 µM	–	inhibition	10%
O=C1CCc2c(ccc3ccccc23)O1	HBL-1	–	–	1 µM, 120 h	–	viability	102%
CC1(C)CN(CCCCC(=O)N[C@@H](CCC(=O)O)C(=O)N[C@@H](CCC(=O)O)C(=O)N[C@H](CCCCNC(=O)CCCCCCC(=O)NCCCC[C@H](NC(=O)N[C@@H](CCC(=O)O)C(=O)O)C(=O)O)C(=O)O)CC[N]2CC(C)(C)[S][Tc]2(=[O])[S]1 (stereo partly shown) [technetium-99m labelled]	LNCaP	–	–	25 nM, 1 h, 4 °C	–	surface-bound activity	2.21 ± 0.35 %AD/mg protein
CNC(=O)c1c(F)cccc1Nc1nc(Nc2cc3c(cc2OC)CCN3C(=O)CN(C)C)nc2[nH]ccc12	hiPSC cardiomyocytes	CellTiter-Glo	–	concentration not given, 24 h	baseline: vehicle	ATP level	73.7%
CC(C)C[C@H](NC(=O)[C@H](CCc1ccccc1)NC(=O)CN1CCOCC1)C(=O)N[C@@H](Cc1ccccc1)C(=O)N[C@@H](CC(C)C)C(=O)[C@@]1(C)CO1	BT-12	cell viability, MTT	–	10 µM, 72 h	–	inhibition	93.6%
O=C(NO)c1cccc(C(=O)NCCc2ccccc2)c1	HBL-1	–	–	0.5 µM, 120 h	–	viability	118%
CC(C)NCC(O)c1ccc(O)c(O)c1 (stereo not shown)	mouse ventricular cardiomyocytes	–	–	dose not given, 0.311 s	–	sarcomere length	1.8 µm
O=C(CCCCCCC(=O)Nc1ccc([C@H]2O[C@@H](CSc3nc(-c4ccccc4)c(-c4ccccc4)o3)C[C@@H](c3ccc(CO)cc3)O2)cc1)NO	HBL-1	–	–	0.1 µM, 120 h	–	viability	124%
COC(=O)[C@]12CCC(C)(C)C[C@H]1[C@H]1C(=O)C=C3[C@@]4(C)C=C(C#N)C(=O)C(C)(C)[C@@H]4CC[C@@]3(C)[C@]1(C)CC2	HepG2	high content imaging, measured: DNA structure	–	24 h, distribution mode 2	–	point of departure	0.891 µM
Nc1ccccc1NC(=O)c1ccc(CNC(=O)OCc2cccnc2)cc1	HBL-1	–	–	1 µM, 120 h	–	viability	4.36%
CCC[C@H](NC(=O)/C(C#N)=C/c1cccc(Br)n1)c1ccccc1	BT-12	cell viability, MTT	–	10 µM, 72 h	–	inhibition	93.6%
Nc1ncn([C@@H]2O[C@H](CO)[C@@H](O)[C@H]2O)c(=O)n1	HBL-1	–	–	1 µM, 120 h	–	viability	102%
COc1cnc2cccc(N3CCc4c(cc(Cn5ccnc5C)cc4-c4cn(C)nc4C(F)(F)F)C3=O)c2c1	JHOC5	cell growth	–	120 h	–	EC50	30600 nM

Repeated from above:
SMILES	target or system	assay	system	conditions	how to read	measurement	result
O=C(CCCCCCC(=O)Nc1ccc([C@H]2O[C@@H](CSc3nc(-c4ccccc4)c(-c4ccccc4)o3)C[C@@H](c3ccc(CO)cc3)O2)cc1)NO	HBL-1	–	–	0.1 µM, 120 h	–	viability	124%
COC(=O)[C@]12CCC(C)(C)C[C@H]1[C@H]1C(=O)C=C3[C@@]4(C)C=C(C#N)C(=O)C(C)(C)[C@@H]4CC[C@@]3(C)[C@]1(C)CC2	HepG2	high content imaging, measured: DNA structure	–	24 h, distribution mode 2	–	point of departure	0.891 µM
